Measurements collected from several papers.
Parts stem from different laboratories: compare values within a part only. Positions count from the first letter of the parent shown.

Study 1
Target: ABI1, truncated, D143A, DHFR fusion (Arabidopsis thaliana)
Technique: DHFR PCA, deep sequencing
Matrix: yeast
Setting: methotrexate growth selection, single substitutions
With: (+)-ABA 1.4 µM
Baseline: wild-type fitted maximum
Direction: higher = stronger binding
Parent: PYL1, truncated, DHFR fusion (Arabidopsis thaliana); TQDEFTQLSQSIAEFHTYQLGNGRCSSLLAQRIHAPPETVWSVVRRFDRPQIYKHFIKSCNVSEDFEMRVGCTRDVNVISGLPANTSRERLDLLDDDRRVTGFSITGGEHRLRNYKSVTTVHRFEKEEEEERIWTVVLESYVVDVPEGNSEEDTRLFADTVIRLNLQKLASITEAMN; partner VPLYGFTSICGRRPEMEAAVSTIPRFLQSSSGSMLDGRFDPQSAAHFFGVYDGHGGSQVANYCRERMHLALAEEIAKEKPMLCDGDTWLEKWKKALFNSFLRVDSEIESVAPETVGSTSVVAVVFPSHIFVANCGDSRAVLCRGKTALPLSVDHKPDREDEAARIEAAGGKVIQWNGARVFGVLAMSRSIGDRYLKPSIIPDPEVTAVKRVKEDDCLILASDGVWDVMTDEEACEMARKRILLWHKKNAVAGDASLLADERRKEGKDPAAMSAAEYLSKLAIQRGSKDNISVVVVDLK
| Substitution | relative binding score |
| --- | --- |
| R163D | 6.71% |
| R74I | 1.62% |
| R90Q | 31.1% |
| V118Q | -11.5% |
| E151M | 44.5% |
| T86F | 67.5% |
| N114V | -0.733% |
| T73G | -0.455% |
| F66E | 22.2% |
| H55F | 53.3% |
| V118M | 28.1% |
| L29I | 64.7% |
| D92Y | 7.55% |
| I52P | -3.66% |
| N165A | 8.65% |
| S87K | 0.143% |

Study 2
Target: Fragile X messenger ribonucleoprotein 1, C-terminal low-complexity region (Fmr1, Mus musculus, UniProt P35922)
Technique: RNA Bind-n-Seq
Form: RNA
Matrix: in vitro
Tested at: 200 nM
Setting: whole 134-nt RNA, ends assumed
With: 150 mM KCl
Baseline: input library
Direction: higher = stronger binding
Constant ends, left off below: GGGAGUUCUACAGUCCGACGAUC … UGGAAUUCUCGGGUGUCAAGG
| Oligonucleotide | log2 enrichment |
| --- | --- |
| CCUGUGCUACACAUCGUAUGUACCGAAUCGGGCCCCCCCGGCCCCCCCGGGGCCCCCCCGGAAAGUAUUAUGUUACGCCGUUCGGAUCUG | -0.521 |
| CCUGUGCUACACAUCGUAUGUACCGAAUCGGGUUUUUUUGGGAAAAAAAGGGUUUUUGGGAAAGUAUUAUGUUACGCCGUUCGGAUCUGC | -0.906 |
| UGCUUCUCUAUGGAAAGGACUUUCCCCCAAGCUGGACGAGGCAUUAAGAAGGAUAGAGGACUCCAGCAGGCUGACUCUACACUUCAUCAU | 0.0624 |
| UGGGAGGUGGAUUUUGUUUAUUUUUUUAGCUCAUUUCCAGGGGUGGGAAUGUUUUUUUAAUAUGUGUCAUGAAUAAAGUUGUUUUUGAAA | 0.358 |
| UGCCAAAGUAUGGCAAGAAAUUGCUCCUGGAAAUACUGAUGCCACCCCAGUAACUCAUGGAACUGAAAGCUCUUGGCAUGAAAUAGCAGC | 0.436 |
| CCUGUGCUACACAUCGUAUGUACCGAAUCGGGGUUUUUUGGGUUUUUUGGGUUUUUUGGGGAAAGUAUUAUGUUACGCCGUUCGGAUCUG | -0.532 |
| UGAAGACUAUGAGACUGCUCUAUCAGGAAAGGAAGCCCUUUCGGCUGCGCUGCGCUCACAAAACCUCACCAAGAGUACAGAGAACCACAG | 0.403 |
| ACCAGGCAGGUGGGCAUCUUUGGGAAGUGGGGCAAGGGGGGGAUAGGGAGGGGGGUAACACUUUGGGAACAGGUGGUCCCAGGUCGUUUC | 0.842 |
| AAGUCCUGUGCUACACAUCGUAUGUACCGAAUCGGAAAAGGGGAAAAGGGAAAAGGGAAAGUAUUAUGUUACGCCGUUCGGAUCUGCACU | -0.109 |

Study 3
Target: CCNA2, cyclin fold, Cln2 fusion (human)
Technique: yeast growth competition, sequencing
Matrix: yeast
Setting: weak parent motif
Baseline: not given
Direction: higher = stronger binding
Parent: FOXM1 docking peptide (human); PHLARPIKVESPP
| Substitution | normalised enrichment score |
| --- | --- |
| L3A | -0.115 |
| P13A | -0.546 |
| S11A | -0.592 |
| K8A | -0.268 |
| I7A | -0.564 |
| R5A | -0.875 |

Study 4
Target: Histone acetyltransferase KAT6A, winged helix 1, GST fusion (KAT6A, Homo sapiens, UniProt Q92794, residues 1-85)
Technique: protein binding microarray
Form: double-stranded DNA, one strand shown
Matrix: in vitro
Tested at: not given
Setting: 8-mer, flanks averaged, mean of 2 arrays, mostly near background
Baseline: not given
Direction: higher = stronger binding
Residues (chain): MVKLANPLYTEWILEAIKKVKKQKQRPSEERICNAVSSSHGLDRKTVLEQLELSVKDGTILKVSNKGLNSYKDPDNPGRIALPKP
| Oligonucleotide | E-score |
| --- | --- |
| CTGGGATC | -0.148 |
| CACTCTTA | -0.243 |
| ACCCCGTA | 0.287 |
| GTTTGCTA | -0.105 |
| CAAGCTAA | -0.229 |
| CGAGCGTC | 0.233 |
| GCATTCGA | 0.0241 |
| AAGAGTTG | -0.12 |
| AACGCCTC | 0.0926 |
| TATGAGAA | -0.0307 |
| AAGAATTG | -0.107 |
| AATGAGGG | -0.268 |
| AAAGGTTC | -0.227 |
| ACGCCGCC | 0.427 |
| AAGTATAT | -0.0729 |
| ACCTTATA | -0.117 |
| CGCGCGGC | 0.463 |
| ACTTTTAT | -0.165 |
| ATCCTCCG | 0.0221 |
| CCTGAAAG | -0.288 |
| CTGATCCC | -0.139 |
| CTTCGTGC | -0.0134 |
| CCTGTTCA | -0.254 |
| ACCGATGG | 0.021 |
| TTGGTAAA | -0.0085 |

A few entries again (study 1):
| Substitution | relative binding score |
| --- | --- |
| R163D | 6.71% |
| R74I | 1.62% |
| R90Q | 31.1% |
| V118Q | -11.5% |
